Assay results gathered from unrelated publications.
Protocols differ between the studies behind these lines. Several values in a cell are separate wells, animals, samples, runs or records. ± marks the error that the study gave.
Target: Cytochrome P450 2D6 (CYP2D6, Homo sapiens, UniProt P10635)
Sequence of UniProt P10635 (whole entry, looked up): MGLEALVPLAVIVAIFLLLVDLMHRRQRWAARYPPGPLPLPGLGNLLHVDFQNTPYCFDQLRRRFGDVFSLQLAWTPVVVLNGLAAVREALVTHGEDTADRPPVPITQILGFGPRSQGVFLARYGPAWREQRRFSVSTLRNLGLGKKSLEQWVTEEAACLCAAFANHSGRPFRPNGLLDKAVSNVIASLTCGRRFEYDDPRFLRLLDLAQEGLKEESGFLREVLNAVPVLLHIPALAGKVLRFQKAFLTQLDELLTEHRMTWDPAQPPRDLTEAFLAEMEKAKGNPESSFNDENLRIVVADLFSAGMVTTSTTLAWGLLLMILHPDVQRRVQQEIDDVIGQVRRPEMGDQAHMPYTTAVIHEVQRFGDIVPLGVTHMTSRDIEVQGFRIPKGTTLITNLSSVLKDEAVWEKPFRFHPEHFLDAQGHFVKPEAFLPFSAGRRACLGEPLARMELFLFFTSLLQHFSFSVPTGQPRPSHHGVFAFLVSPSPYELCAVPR

Compound	test	system	setting	scale	measurement	result
CCC(=O)N(C)c1ccc(Cl)c(Cl)c1	–	recombinant enzyme Supersomes	1 µM, with: NADPH	–	half-life	> 3 h
Cc1ccc(OCC(=O)N(Cc2cccs2)c2ccn[nH]2)cc1	enzyme activity, inhibitor, mass spectrometry	human, liver microsomes	10 µM	–	inhibition	15%
CCc1nc(N)nc(N)c1C#C[C@H](C)c1cc(-c2cc(C)nc(C)c2)ccc1Cl	enzyme activity, inhibitor, fluorescence	–	–	–	IC50	> 50 µM
NS(=O)(=O)NCC(F)(F)c1ccccc1F	enzyme activity, inhibitor, fluorescence	–	–	–	IC50	> 120 µM and > 74 µM
CCc1nc(N)nc(N)c1C#CC(C)c1cccc(-c2cc(C)nc(C)c2)c1 (racemic)	enzyme activity, inhibitor, fluorescence	–	–	–	IC50	27.4 µM
O=C(CS(=O)(=O)Cc1ccco1)C12CC3CC(CC(C3)C1)C2	inhibitor	–	10 µM	–	inhibition	no inhibition
CC1CCC2(OC1)OC1CC3C4CC=C5CC(OC6OC(CO)C(OC7OC(CO)C(O)C7O)C(O)C6OC6OC(C)C(O)C(O)C6O)CCC5(C)C4CCC3(C)C1(O)C2C (stereo not drawn)	dextromethorphan O-demethylation	pooled human liver microsomes	100 µM, 1 h, pH 7.4	baseline: vehicle	remaining activity	33.3%
CCc1nc(N)nc(N)c1C#CC(C)c1cc(-c2cc(C)nc(C)c2)ccc1OC(F)(F)F (racemic)	enzyme activity, inhibitor, fluorescence	–	–	–	IC50	> 50 µM
CCC1CC2C(C)=CC3C(=O)CCCC3C=CC(C)=CC2C(=O)O1 (stereo not drawn)	–	human liver microsomes	10 µM, 10 min, pH 7.4, with: dextromethorphan 2 µM	baseline: untreated	remaining activity	87.7%
NC(COc1ccccc1C(F)(F)F)c1ccccc1 (stereo not drawn)	–	purified enzyme	50 µM	–	metabolic rate	43.6 ± 8.2 nmol/min/mg of protein
Brc1ccccc1-c1nnc(CSc2nnnn2-c2ccccc2)o1	fluorescence	insect cell microsomes	10 µM	negative = possible induction	inhibition	-21%
C[N+]1(CC(=O)OC2CCCCCCCCCCC2)CCCCC1	inhibitor	–	–	–	IC50	1.58 µM
OC1(C(F)(F)F)CCN(c2nc(Nc3ccnc(C(F)(F)F)c3)nc(-c3cccc(C(F)(F)F)n3)n2)C1 (stereo not drawn)	enzyme activity, inhibitor	human liver microsomes	concentration not given	–	inhibition	no inhibition
CCc1nc(N)nc(N)c1C#CC(C)c1cc(F)cc(-c2cc(C)nc(C)c2)c1 (racemic)	enzyme activity, inhibitor, fluorescence	–	–	–	IC50	> 50 µM
COc1cc(OC)c(F)c(/C=C/c2cnc3ccn(S(=O)(=O)c4cn(CCF)cn4)c3n2)c1F	enzyme activity, inhibitor	human, liver microsomes	10 µM, 20 min, pH 7.4	–	inhibition	9%

Repeated from above:
Compound	test	system	setting	scale	measurement	result
CCc1nc(N)nc(N)c1C#CC(C)c1cc(-c2cc(C)nc(C)c2)ccc1OC(F)(F)F (racemic)	enzyme activity, inhibitor, fluorescence	–	–	–	IC50	> 50 µM
CCc1nc(N)nc(N)c1C#C[C@H](C)c1cc(-c2cc(C)nc(C)c2)ccc1Cl	enzyme activity, inhibitor, fluorescence	–	–	–	IC50	> 50 µM
